Published values collected from several papers.
Numbered parts are unrelated; each lists some results of a single study.
UniProt Q13976, sequence (whole entry, looked up): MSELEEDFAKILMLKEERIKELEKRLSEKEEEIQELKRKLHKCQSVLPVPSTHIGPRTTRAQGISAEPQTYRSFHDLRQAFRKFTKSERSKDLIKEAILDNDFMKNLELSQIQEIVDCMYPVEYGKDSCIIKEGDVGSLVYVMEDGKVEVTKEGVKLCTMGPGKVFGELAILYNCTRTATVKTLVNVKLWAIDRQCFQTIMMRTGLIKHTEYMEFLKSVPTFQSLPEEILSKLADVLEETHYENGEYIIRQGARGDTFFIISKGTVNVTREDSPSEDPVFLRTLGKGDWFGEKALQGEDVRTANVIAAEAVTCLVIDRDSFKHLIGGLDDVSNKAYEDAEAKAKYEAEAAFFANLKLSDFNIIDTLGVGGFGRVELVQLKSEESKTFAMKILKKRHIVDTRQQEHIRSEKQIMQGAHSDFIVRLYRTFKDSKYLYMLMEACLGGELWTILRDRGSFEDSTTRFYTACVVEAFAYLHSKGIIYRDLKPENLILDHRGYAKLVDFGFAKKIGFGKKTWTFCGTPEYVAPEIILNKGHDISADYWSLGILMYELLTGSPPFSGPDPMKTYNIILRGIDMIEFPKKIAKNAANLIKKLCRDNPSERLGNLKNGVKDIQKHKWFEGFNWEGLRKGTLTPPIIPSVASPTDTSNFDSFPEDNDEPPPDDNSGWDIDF
UniProt P35626, sequence (whole entry, looked up): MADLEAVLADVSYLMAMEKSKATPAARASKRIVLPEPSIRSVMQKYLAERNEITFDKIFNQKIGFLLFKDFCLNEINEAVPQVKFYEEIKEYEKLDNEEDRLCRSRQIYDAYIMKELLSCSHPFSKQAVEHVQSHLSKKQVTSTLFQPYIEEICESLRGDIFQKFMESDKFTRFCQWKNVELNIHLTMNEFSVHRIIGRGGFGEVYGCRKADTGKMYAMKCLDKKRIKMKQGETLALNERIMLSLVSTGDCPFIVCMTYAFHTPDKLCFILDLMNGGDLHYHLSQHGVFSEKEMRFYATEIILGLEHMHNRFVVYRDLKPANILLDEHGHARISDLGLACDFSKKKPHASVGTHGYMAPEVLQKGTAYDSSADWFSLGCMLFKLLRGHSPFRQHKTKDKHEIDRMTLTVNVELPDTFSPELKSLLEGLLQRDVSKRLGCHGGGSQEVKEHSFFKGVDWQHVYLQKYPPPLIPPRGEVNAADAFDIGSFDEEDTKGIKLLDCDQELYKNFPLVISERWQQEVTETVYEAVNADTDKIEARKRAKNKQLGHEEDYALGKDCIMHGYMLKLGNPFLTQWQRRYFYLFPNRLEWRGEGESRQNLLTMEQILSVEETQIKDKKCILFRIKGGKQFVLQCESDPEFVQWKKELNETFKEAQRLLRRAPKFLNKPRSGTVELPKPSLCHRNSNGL
UniProt Q00535, sequence (whole entry, looked up): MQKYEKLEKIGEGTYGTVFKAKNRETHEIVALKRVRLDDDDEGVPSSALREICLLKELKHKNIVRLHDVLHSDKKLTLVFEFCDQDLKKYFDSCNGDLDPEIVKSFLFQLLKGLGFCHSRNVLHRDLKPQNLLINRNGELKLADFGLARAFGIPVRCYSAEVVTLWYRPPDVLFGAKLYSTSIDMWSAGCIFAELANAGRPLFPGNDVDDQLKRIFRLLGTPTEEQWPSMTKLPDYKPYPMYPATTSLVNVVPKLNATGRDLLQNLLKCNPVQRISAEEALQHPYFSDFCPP
UniProt Q13557, sequence (whole entry, looked up): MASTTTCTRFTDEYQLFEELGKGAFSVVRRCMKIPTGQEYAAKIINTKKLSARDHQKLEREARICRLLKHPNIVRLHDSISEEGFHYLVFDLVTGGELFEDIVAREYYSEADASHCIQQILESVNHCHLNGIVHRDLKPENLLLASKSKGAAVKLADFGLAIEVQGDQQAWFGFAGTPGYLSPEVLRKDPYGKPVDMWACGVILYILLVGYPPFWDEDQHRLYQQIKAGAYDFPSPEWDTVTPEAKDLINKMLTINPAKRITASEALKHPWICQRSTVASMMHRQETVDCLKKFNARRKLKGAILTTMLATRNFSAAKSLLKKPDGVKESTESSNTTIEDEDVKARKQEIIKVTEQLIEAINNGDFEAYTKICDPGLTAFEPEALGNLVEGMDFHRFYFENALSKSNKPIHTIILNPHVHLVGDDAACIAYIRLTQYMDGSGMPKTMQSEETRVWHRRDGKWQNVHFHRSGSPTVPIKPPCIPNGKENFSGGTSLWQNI

Study 1
Cell line: HaCaT
Tested at: 100 µM
Time: 36 h
CC(C)c1cccc(C(C)C)c1O gave a viability of 46.4%.
With NC(=O)CN1CC(O)CC1=O (stereo not shown) the viability was 96.6%.
The viability of C[C@@H]1CC[C@@]2(OC1)O[C@H]1[C@@H](O)[C@H]3[C@@H]4CC[C@H]5C[C@@H](O[C@@H]6O[C@H](CO)[C@H](O[C@@H]7O[C@H](CO)[C@@H](O)[C@H](O[C@@H]8OC[C@@H](O)[C@H](O)[C@H]8O)[C@H]7O[C@@H]7O[C@H](CO)[C@H](O)[C@H](O[C@@H]8O[C@H](CO)[C@@H](O)[C@H](O)[C@H]8O)[C@H]7O)[C@H](O)[C@H]6O)[C@H](O)C[C@]5(C)[C@H]4CC[C@]3(C)[C@H]1[C@@H]2C is reported as 4.43%.
COC1=C[C@@H]2[C@@H]3Cc4ccc(OC)c(O)c4[C@]2(CCN3C)CC1=O gave a viability of 86%.
CN1C(=O)CCS(=O)(=O)C1c1ccc(Cl)cc1 (stereo not shown) gave a viability of 91.3%.
The viability of CCN1CC2(COC)CCC(OC)C34C5CC6(O)C(OC)CC(OC(C)=O)(C5C6C(=O)c5ccc(OC)cc5)C(C(OC)C23)C14 (stereo not shown) is reported as 95.9%.

Study 2
Target: DNA polymerase theta, ATPase domain (POLQ, Homo sapiens, UniProt O75417)
UniProt O75417, sequence (whole entry, unmodified, looked up): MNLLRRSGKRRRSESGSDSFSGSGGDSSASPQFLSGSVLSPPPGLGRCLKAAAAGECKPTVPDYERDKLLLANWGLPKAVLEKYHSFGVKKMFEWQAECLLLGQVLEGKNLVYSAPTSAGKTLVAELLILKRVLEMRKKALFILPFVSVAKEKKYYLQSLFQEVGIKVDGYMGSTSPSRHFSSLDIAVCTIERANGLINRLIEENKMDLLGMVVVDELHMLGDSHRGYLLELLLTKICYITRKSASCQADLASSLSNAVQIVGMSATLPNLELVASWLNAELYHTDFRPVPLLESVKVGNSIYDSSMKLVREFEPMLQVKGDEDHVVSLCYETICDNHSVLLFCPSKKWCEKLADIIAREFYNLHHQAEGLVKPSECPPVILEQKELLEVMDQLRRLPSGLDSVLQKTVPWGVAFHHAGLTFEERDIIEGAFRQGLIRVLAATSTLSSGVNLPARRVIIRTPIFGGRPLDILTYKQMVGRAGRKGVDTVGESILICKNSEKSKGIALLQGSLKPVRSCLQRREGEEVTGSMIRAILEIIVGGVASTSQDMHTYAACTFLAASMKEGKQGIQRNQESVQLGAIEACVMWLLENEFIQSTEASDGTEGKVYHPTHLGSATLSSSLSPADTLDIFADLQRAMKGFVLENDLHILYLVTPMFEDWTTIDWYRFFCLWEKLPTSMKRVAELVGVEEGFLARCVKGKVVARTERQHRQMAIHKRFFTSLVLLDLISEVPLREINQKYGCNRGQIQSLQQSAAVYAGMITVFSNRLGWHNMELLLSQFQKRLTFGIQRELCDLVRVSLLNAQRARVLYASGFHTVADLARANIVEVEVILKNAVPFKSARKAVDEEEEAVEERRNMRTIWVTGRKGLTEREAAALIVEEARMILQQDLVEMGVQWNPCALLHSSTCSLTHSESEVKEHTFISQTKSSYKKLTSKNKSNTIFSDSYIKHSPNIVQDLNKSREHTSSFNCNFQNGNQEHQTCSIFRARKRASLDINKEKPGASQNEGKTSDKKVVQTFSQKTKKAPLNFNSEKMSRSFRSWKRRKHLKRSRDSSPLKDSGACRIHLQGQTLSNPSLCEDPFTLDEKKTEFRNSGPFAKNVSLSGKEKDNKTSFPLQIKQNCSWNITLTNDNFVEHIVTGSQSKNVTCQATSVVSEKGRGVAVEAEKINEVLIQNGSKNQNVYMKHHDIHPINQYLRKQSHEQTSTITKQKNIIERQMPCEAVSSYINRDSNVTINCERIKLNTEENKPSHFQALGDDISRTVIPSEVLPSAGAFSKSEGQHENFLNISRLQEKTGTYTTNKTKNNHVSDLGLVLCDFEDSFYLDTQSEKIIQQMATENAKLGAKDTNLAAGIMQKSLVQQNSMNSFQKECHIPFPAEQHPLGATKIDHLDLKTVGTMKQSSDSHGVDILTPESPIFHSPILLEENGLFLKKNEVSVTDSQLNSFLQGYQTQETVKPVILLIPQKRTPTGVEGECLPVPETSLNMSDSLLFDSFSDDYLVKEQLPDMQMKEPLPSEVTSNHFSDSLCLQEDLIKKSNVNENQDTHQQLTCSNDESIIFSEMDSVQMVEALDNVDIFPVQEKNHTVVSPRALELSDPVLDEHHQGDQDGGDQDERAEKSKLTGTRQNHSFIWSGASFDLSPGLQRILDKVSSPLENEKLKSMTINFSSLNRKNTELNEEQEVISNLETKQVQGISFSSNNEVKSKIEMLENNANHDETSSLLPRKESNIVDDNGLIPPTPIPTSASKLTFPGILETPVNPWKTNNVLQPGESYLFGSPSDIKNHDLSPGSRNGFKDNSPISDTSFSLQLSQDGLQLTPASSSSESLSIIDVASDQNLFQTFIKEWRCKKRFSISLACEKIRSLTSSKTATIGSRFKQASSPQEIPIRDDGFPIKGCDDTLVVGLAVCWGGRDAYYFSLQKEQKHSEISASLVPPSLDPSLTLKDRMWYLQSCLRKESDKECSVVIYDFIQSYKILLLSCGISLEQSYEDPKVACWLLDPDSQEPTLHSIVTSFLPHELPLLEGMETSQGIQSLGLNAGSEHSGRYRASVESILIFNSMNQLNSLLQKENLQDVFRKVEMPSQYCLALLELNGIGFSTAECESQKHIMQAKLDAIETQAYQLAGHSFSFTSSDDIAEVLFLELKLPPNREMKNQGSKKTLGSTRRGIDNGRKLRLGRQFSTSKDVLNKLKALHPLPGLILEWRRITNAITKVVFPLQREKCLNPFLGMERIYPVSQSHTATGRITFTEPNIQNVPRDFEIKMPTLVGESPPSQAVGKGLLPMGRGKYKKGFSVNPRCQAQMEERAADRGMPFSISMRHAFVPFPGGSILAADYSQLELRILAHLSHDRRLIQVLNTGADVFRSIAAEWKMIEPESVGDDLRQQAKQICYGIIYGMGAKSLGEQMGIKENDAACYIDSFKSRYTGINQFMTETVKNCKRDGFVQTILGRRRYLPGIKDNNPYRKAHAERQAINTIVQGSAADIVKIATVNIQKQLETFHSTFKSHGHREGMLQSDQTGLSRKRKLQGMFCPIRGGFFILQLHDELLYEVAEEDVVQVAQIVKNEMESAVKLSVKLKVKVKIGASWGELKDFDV
Observed: enzyme activity
Mode: inhibitor
Tested at: 77 µM
With CCCN1CCC[C@@H]2Cc3[nH]ncc3C[C@H]21 the remaining activity was 99%.
For CNCCc1ccc(O)c(O)c1, the remaining activity was 101%.
NC(=O)c1ccc(OCC(O)CN2CC=C(c3ccc(F)cc3)CC2)cc1 (stereo not shown) gave a remaining activity of 99.4%.
COc1cc(C(=O)OC2CC3CCC(C2)N3C)ccc1O (stereo not shown) gave a remaining activity of 95.3%.
The remaining activity of CN1CCc2cc(O)cc3c2[C@H]1Cc1ccc(O)c(O)c1-3 is reported as 103%.
CN1CCC2(C)c3cc(O)ccc3N(C)C12 (single isomer, unassigned; (-)) gave a remaining activity of 100%.
For COc1ccc2c(c1O)-c1c(OC)c(OC)cc3c1[C@H](C2)N(C)CC3, the remaining activity was 102%.
The remaining activity of Cc1ccccc1-n1c(Cn2cnc3c(N)ncnc32)nc2cccc(C)c2c1=O is reported as 111%.
The remaining activity of COC(=O)[C@]1(O)C[C@@H]2O[C@@]1(C)n1c3ccccc3c3c4c(c5c6ccccc6n2c5c31)C(=O)NC4 is reported as 102%.
The remaining activity of COc1cc(-n2c(=S)[nH]c3ccccc3c2=O)c(Cl)cc1Cl is reported as 95.1%.
NCCc1c[nH]c2ccc(C(N)=O)cc12 has a remaining activity of 99.8%.

Study 3
SMILES: COC[C@H]1OC(=O)c2coc3c2[C@@]1(C)C1=C(C3=O)[C@@H]2CCC(=O)[C@@]2(C)C[C@H]1OC(C)=O
Observed: enzyme activity
Mode: inhibitor
Tested at: 0.5 µM
Relative to: control
cGMP-dependent protein kinase 1, isoform beta (PRKG1, Homo sapiens, UniProt Q13976) — remaining activity: 98.3%.
It gave 106% for remaining activity (DAPK1 (Homo sapiens, UniProt P53355)).
It gave 89.2% for remaining activity (NEK2 (Homo sapiens, UniProt P51955)).
For GRK3 (Homo sapiens, UniProt P35626): remaining activity read 92.8%.
It gave 98.1% for remaining activity (CAMK2D (Homo sapiens, UniProt Q13557)).
For DAPK2 (Homo sapiens, UniProt Q9UIK4): remaining activity read 87.1%.
MAPK9 (Homo sapiens, UniProt P45984) — remaining activity: 100%.
It gave 87.6% for remaining activity (Cyclin-dependent kinase 5, with p25 (CDK5, Homo sapiens, UniProt Q00535)).
Protein kinase C beta type, isoform beta-I (PRKCB, Homo sapiens, UniProt P05771) — remaining activity: 101%.
It gave 93% for remaining activity (PRKACA (Homo sapiens, UniProt P17612)).
The remaining activity was 98.5% (Tyrosine-protein kinase Lyn, isoform B (LYN, Homo sapiens, UniProt P07948)).
For CAMKK2 (Homo sapiens, UniProt Q96RR4): remaining activity read 79.3%.

Study 4
Cell line: mouse MPNST tumor cells
Method: high-content nuclear imaging
Measured: cell number
Tested at: 10 µM
Time: 12 h
Notes: mean of 2 replicates
Relative to: plate mean
Direction: higher = more cells
With CN/C(=N\S(=O)(=O)c1ccc(Cl)cc1)N1C[C@H](c2ccccc2)C(c2ccc(Cl)cc2)=N1 the nuclei count was 0.923 z-score.
The nuclei count of CNC(C)(C)Cc1ccccc1 is reported as 1.11 z-score.
CO[C@]12C[C@@H](COC(=O)c3cncc(Br)c3)CN(C)[C@@H]1Cc1cn(C)c3cccc2c13 gave a nuclei count of 1.31 z-score.
Fc1cc(F)c2c(c1)[C@H]1C=CC[C@H]1C(c1cccnc1)N2 (stereo partly shown) has a nuclei count of -1.08 z-score.
With O=C1CN=C(c2ccc[nH]2)c2cc(Cl)ccc2N1 the nuclei count was 2.12 z-score.
With COC(=O)CN1CN(c2ccccc2)C2(CCN(Cc3ccc4ccccc4c3)CC2)C1=O the nuclei count was 2.88 z-score.
O=C1Nc2ccc(Cl)c3c2C1(CCCCN1CC=C(c2ccc(Cl)cc2)CC1)CCC3 (stereo not shown) gave a nuclei count of -4.8 z-score.
NP(N)(=O)NC(=O)c1ccc(F)cc1 has a nuclei count of 1.5 z-score.

Some of these lines once more (study 2):
NC(=O)c1ccc(OCC(O)CN2CC=C(c3ccc(F)cc3)CC2)cc1 (stereo not shown) gave a remaining activity of 99.4%.
CN1CCC2(C)c3cc(O)ccc3N(C)C12 (single isomer, unassigned; (-)) gave a remaining activity of 100%.
The remaining activity of COC(=O)[C@]1(O)C[C@@H]2O[C@@]1(C)n1c3ccccc3c3c4c(c5c6ccccc6n2c5c31)C(=O)NC4 is reported as 102%.
